Measured values collected from several papers.
Compare with care: the assays were run in different laboratories. ± marks the error that the study gave.
Sequence of UniProt Q86Y07 (whole entry, looked up): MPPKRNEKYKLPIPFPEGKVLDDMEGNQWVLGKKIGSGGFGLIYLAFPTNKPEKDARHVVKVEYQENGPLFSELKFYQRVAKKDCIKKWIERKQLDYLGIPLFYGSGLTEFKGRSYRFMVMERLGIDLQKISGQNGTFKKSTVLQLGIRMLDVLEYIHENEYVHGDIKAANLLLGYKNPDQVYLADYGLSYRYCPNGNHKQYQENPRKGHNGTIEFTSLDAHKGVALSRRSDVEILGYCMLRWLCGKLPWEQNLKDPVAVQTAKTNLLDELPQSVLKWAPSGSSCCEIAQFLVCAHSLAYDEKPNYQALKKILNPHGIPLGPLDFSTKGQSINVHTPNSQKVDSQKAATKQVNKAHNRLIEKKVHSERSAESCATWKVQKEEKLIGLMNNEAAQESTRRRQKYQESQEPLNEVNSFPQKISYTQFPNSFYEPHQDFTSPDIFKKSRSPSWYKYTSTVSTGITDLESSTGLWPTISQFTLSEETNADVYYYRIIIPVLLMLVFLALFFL

For `CC(C)[C@@H]1NC(=O)CNC(=O)[C@H](CC(N)=O)NC(=O)[C@H](CCCNC(=N)N)NC(=O)[C@H](Cc2ccc(O)cc2)NC(=O)[C@H](C(C)C)NC(=O)[C@@H](NC(=O)[C@@H](NC(=O)[C@H](CC(N)=O)NC(=O)[C@H](Cc2c[nH]c3ccccc23)NC(=O)[C@H](C)NC(=O)[C@H](Cc2ccccc2)NC(=O)CNC(=O)[C@H](CCCCN)NC(=O)[C@H](Cc2ccccc2)NC(=O)[C@H](Cc2ccccc2)NC(=O)[C@H](CCCCN)NC(=O)OCC2c3ccccc3-c3ccccc32)C(C)C)CSSC[C@@H](C(=O)N[C@@H](Cc2c[nH]cn2)C(=O)N[C@@H](CCCNC(=N)N)C(=O)N[C@@H](CCCNC(=N)N)C(=O)N[C@@H](C)C(=O)N[C@@H](CC(N)=O)C(N)=O)NC(=O)[C@H](C(C)C)NC(=O)[C@H](CCCNC(=N)N)NC1=O`, the AST/ALT ratio was 0.55 ± 0.03 (ICR mice, serum; intraperitoneal, 5 mg/kg, day 5; reference: AST over ALT).
For `CC(C)[C@H]1NC(=O)[C@@H](C)NC(=O)[C@@H](C(C)C)NC(=O)[C@@H](Cc2ccccc2)NC(=O)[C@@H](C(C)C)NC(=O)[C@@H]([C@H](C)O)NC(=O)[C@@H](Cc2ccc(O)cc2)NC(=O)[C@@H](CCCNC(=N)N)NC(=O)[C@@H]2CCCC[C@H]2NC(=O)[C@@H](CO)NC(=O)[C@H](Cc2ccc(O)cc2)NC(=O)CSC[C@@H](C(=O)NCCOCCOCCOCCOCCOCCOCCC(N)=O)NC(=O)[C@@H](CO)NC(=O)[C@@H](C(C)C)NC(=O)[C@@H](Cc2ccc(O)cc2)NC1=O`, the stability time was ≥ 12 h (simulated intestinal fluid; pH 6.8, 37 °C, added: pancreatin).
For `COc1ccccc1-c1n[nH]c2nc(NC3CCN(C(=O)Cc4ccc(F)cc4F)CC3)ncc12`, the relative abundance was 1.16 (bead binding, competition bead pull-down, item: LINJ.35.2780; Leishmania donovani extract; 10 µM; reference: vehicle).
`CC(C)[C@H](NC(=O)[C@@H](NC(=O)[C@H](CCCNC(=N)N)NC(=O)[C@H](CCCNC(=N)N)NC(=O)[C@H](CCCNC(=N)N)NC(=O)[C@H](CCC(N)=O)NC(=O)[C@H](CCCNC(=N)N)NC(=O)[C@H](CCCNC(=N)N)NC(=O)[C@H](CCCCN)NC(=O)[C@H](CCCCN)NC(=O)[C@H](CCCNC(=N)N)NC(=O)CN)[C@@H](C)O)C(=O)N[C@H](C(=O)N[C@@H](CO)C(=O)N1CCC[C@H]1C(=O)O)[C@@H](C)O` has a kidney weight of 0.209 ± 0.031 g (ICR mouse, female, left kidney; intranasal, 20 mg/kg daily, 4 weeks).
The prothrombin time of `O=C1NC2(CC2)COc2ncc(F)cc2[C@H]2COCCN2c2ccn3ncc1c3n2` is reported as 8.3 ± 0.2 s (Sprague-Dawley rat, female, plasma; oral, 10 mg/kg/day, end of treatment, 4-week repeated-dose toxicity).
`CCCCCCCCCCCCCCCC(=O)N[C@@H](CCC(=O)NCCOCCOCCC(=O)NCCOCCOCCC(=O)NCCCC[C@H](NC(=O)[C@H](CC(=O)O)NC(=O)[C@H](CC(C)C)NC(=O)[C@H](Cc1ccc(O)cc1)NC(=O)[C@H](CCCCN)NC(=O)[C@H](CO)NC(=O)[C@H](Cc1ccc(O)cc1)NC(=O)[C@H](CC(=O)O)NC(=O)[C@H](CO)NC(=O)[C@@H](NC(=O)[C@H](Cc1ccccc1)NC(=O)[C@@H](NC(=O)CNC(=O)[C@H](CCC(N)=O)NC(=O)[C@@H](CO)NC(=O)[C@@H](N)Cc1c[nH]cn1)[C@@H](C)O)[C@@H](C)O)C(=O)N[C@@H](CCCNC(=N)N)C(=O)N[C@@H](CCCNC(=N)N)C(=O)N[C@@H](C)C(=O)N[C@@H](CCC(N)=O)C(=O)N[C@@H](CC(=O)O)C(=O)N[C@@H](Cc1ccccc1)C(=O)N[C@H](C(=O)N[C@@H](CCC(N)=O)C(=O)N[C@@H](Cc1c[nH]c2ccccc12)C(=O)N[C@@H](CC(C)C)C(=O)N[C@@H](CC(C)C)C(=O)N[C@@H](CC(N)=O)C(=O)N[C@H](C(=O)NCC(=O)NCC(=O)N1CCC[C@H]1C(=O)N[C@@H](CO)C(=O)N[C@@H](CO)C(=O)NCC(=O)N[C@@H](C)C(=O)N1CCC[C@H]1C(=O)N1CCC[C@H]1C(=O)N1CCC[C@H]1C(=O)N[C@@H](CO)C(N)=O)[C@@H](C)O)C(C)C)C(=O)O` — result for “serum enzyme activity”: 45.9 ± 9.2 U/L (item: AST; rhesus monkey, male; subcutaneous, 60 µg/kg once daily, 28 days).
`CC(C)(C)C(=O)OCOP(=O)(OCOC(=O)C(C)(C)C)C1CCCN(O)C1=O` (stereo not drawn) gave a log LC50 of -4.3 log M (MDA-MB-468).
`CN1Cc2cc(Cl)ccc2-n2c(nnc2C2CCN(c3cccc([18F])n3)CC2)C1`: “total volume of distribution” 1.13 ± 0.37 mL/cm3 (PET two-tissue compartment model; rhesus monkey, amygdala; intravenous, dose not given, 80 min scan, baseline scan).
For `CCCCCCCCCCCCCC(=O)N1CCN(C(=O)C2CCNCC2)CCN(C(=O)C2CCNCC2)CC1`, the hydrodynamic diameter was 218 nm (dynamic light scattering; deionized water; 128 µg/mL, 25 °C, intensity average).
The concentration of `COc1cccc2c1C(=O)c1c(O)c3c(c(O)c1C2=O)CC(O)(C(=O)CO)CC3OC1CC(NC(=O)OC2C=CCCC(C)(C(=O)NCC(=O)O)CC2)C(O)C(C)O1` (stereo not drawn) is reported as 4.17 ng/g (female C57BL/6 mouse, biopolymer injection site tissue; intravenous, 43 mg/kg doxorubicin equivalents, 19 day).
For `CS(C)(=O)=Nc1ccc(-c2ccc(-c3nc4cc(O[C@@H]5CO[C@H]6[C@@H]5OC[C@H]6O)[nH]c4cc3F)cc2)cc1`, the inhibition was 5% (Serine/threonine-protein kinase VRK2 (VRK2, Homo sapiens, UniProt Q86Y07); enzyme activity, inhibitor; 10 µM).
The relative abundance of `COc1ccccc1-c1n[nH]c2nc(N[C@H]3CC[C@H](NS(=O)(=O)CC(C)C)CC3)ncc12` is reported as 0.99 (bead binding, competition bead pull-down, item: LINJ.28.2610; Leishmania donovani extract; 10 µM; reference: vehicle).
`Cc1nc2cccc(OCC(C)(C)C(=O)NC(C)C)c2c(N)c1C(=O)[O-].[Na+]`: “revertant colonies per plate” 11 ± 3 (Salmonella typhimurium; TA1537; 0.32 mg per plate, without S9, plate incorporation).
`CC(C)C[C@@H](NC(=O)[C@@H](CCCNC(=N)N)NC(=O)[C@@H](Cc1c[nH]cn1)NC(=O)[C@@H](Cc1c[nH]c2ccccc12)NC(=O)[C@@H](Cc1c[nH]cn1)NC(=O)[C@@H](Cc1ccccc1)NC(=O)[C@H](NC(=O)[C@@H](Cc1ccc(O)cc1)NC(=O)CNC(=O)CNC(=O)CCOCCOCCOCCNC(=O)CN1CCN(CC(=O)O)CCN(CC(=O)O)CC1)[C@H](C)O)C(=O)N[C@H](CC(N)=O)C(=O)N1CCC[C@@H]1C(=O)O` [gallium-68 labelled] gave a tissue ratio of 2.54 ± 0.65 (C57BL/6 mice, male; intravenous, 1.85 MBq, 30 min; reference: tumour over muscle).
`CC[C@H](C)[C@H](NC(=O)[C@H](CCCCN)NC(=O)CNC(=O)[C@H](CC(C)C)NC(=O)[C@H](Cc1ccccc1)NC(=O)[C@H](CCCCN)NC(=O)[C@H](CO)NC(=O)[C@H](Cc1ccccc1)NC(=O)[C@H](Cc1c[nH]c2ccccc12)NC(=O)[C@H](CCC(N)=O)NC(=O)[C@@H](NC(=O)[C@H](Cc1ccccc1)NC(=O)CCCCCNC(=O)CN1CCN(CC(=O)O)CCN(CC(=O)O)CCN(CC(=O)O)CC1)C(C)C)C(=O)N[C@@H](CCC(=O)O)C(=O)N1CCC[C@H]1C(=O)N[C@H](CC(=O)O)C(=O)N[C@H](C(=O)N[C@@H](CO)C(=O)N[C@@H](CCC(N)=O)C(=O)N[C@H](C(=O)N[C@@H](CCC(N)=O)C(=O)N[C@@H](CC(=O)O)C(=O)N1CCC[C@H]1C(=O)N[C@@H](CC(N)=O)C(=O)N[C@@H](CC(=O)O)C(=O)N[C@@H](CCC(N)=O)C(=O)N[C@@H](Cc1ccc(O)cc1)C(=O)N[C@@H](CCC(=O)O)C(=O)N1CCC[C@H]1C(=O)N[C@@H](Cc1ccccc1)C(=O)O)C(C)C)C(C)C` [copper-64 labelled] has a tissue uptake of 2.22 ± 0.5 %ID/g (C57BL/6 mice, male, MC-38 tumour-bearing, tumor; 2 h, checkpoint inhibitor-treated).
`CC(C)C[C@H](NC(=O)[C@H](Cc1ccc(O)cc1)NC(=O)[C@H](Cc1c[nH]cn1)NC(=O)[C@@H](NC(=O)[C@H](CC(C)C)NC(=O)[C@H](C)NC(=O)[C@H](C)NC(=O)[C@H](CCCCN)NC(=O)CNC(=O)[C@@H](NC(=O)[C@H](Cc1c[nH]cn1)NC(=O)[C@H](CCCCN)NC(=O)CNC(=O)[C@@H](NC(=O)[C@H](Cc1c[nH]cn1)NC(=O)[C@H](C)NC(=O)[C@H](C)NC(=O)[C@H](CCCCN)NC(=O)[C@H](CCCCN)NC(=O)[C@H](Cc1ccccc1)NC(=O)[C@H](Cc1ccccc1)NC(=O)[C@H](CO)NC(=O)CNC(=O)[C@H](Cc1c[nH]c2ccccc12)NC(=O)CN)C(C)C)C(C)C)[C@@H](C)O)C(N)=O` — result for “acute toxic concentration”: 5 µM (zebrafish embryos 4 hpf, E3 medium; 1 h).
`CC(=O)NCCCC[C@@H]1NC(=O)[C@H](Cc2c[nH]c3c(C)cccc23)NC(=O)[C@H]([C@@H](C)O)NC(=O)[C@H](CC(N)=O)NC(=O)[C@@H](NC(C)=O)C(C)(C)SSC(C)(C)[C@@H](C(=O)N[C@@H](Cc2ccc(OCCN)cc2)C(=O)N[C@@H](Cc2ccc3ccccc3c2)C(=O)NC2(C(=O)N[C@@H](CCC(=O)O)C(=O)N[C@@H](CC(N)=O)C(=O)N[C@@H](Cc3cccnc3)C(=O)N(C)CC(N)=O)CCOCC2)NC1=O` — result for “plasma protein binding”: 46.8 ± 1% (equilibrium dialysis; cynomolgus monkey, plasma; 0.01 µM).
`CSCC[C@H](NC(=O)CNC(=O)[C@H](CCCCN)NC(=O)[C@H](CC(C)C)NC(=O)[C@@H]1CCCN1C(=O)[C@H](CO)NC(=O)[C@H](Cc1c[nH]cn1)NC(=O)[C@H](Cc1c[nH]c2ccccc12)NC(=O)[C@H](CCCNC(=N)N)NC(=O)[C@H](CC(C)C)NC(=O)[C@H](CCCNC(=N)N)NC(=O)[C@H](Cc1c[nH]c2ccccc12)NC(=O)[C@H](CS)NC(=O)CCCCCNC(=O)CN1CCN(CC(=O)O)CCN(CC(=O)O)CCN(CC(=O)O)CC1)C(=O)O` [copper-64 labelled] has a tissue uptake of 2.25 %ID/g (ex vivo biodistribution; BALB/c nude mice, stomach; intravenous, dose not given, 2 h, Huh-7 tumour-bearing).

Repeated from above:
For `CCCCCCCCCCCCCC(=O)N1CCN(C(=O)C2CCNCC2)CCN(C(=O)C2CCNCC2)CC1`, the hydrodynamic diameter was 218 nm (dynamic light scattering; deionized water; 128 µg/mL, 25 °C, intensity average).
The concentration of `COc1cccc2c1C(=O)c1c(O)c3c(c(O)c1C2=O)CC(O)(C(=O)CO)CC3OC1CC(NC(=O)OC2C=CCCC(C)(C(=O)NCC(=O)O)CC2)C(O)C(C)O1` (stereo not drawn) is reported as 4.17 ng/g (female C57BL/6 mouse, biopolymer injection site tissue; intravenous, 43 mg/kg doxorubicin equivalents, 19 day).
